Experimental data pooled from the literature.
Lines come from different studies, so protocols differ.
USP13 ZnF-UBD domain: Ubiquitin carboxyl-terminal hydrolase 13, ZnF-UBD domain (USP13, Homo sapiens, UniProt Q92995)
Sequence of UniProt Q92995 (whole entry, looked up): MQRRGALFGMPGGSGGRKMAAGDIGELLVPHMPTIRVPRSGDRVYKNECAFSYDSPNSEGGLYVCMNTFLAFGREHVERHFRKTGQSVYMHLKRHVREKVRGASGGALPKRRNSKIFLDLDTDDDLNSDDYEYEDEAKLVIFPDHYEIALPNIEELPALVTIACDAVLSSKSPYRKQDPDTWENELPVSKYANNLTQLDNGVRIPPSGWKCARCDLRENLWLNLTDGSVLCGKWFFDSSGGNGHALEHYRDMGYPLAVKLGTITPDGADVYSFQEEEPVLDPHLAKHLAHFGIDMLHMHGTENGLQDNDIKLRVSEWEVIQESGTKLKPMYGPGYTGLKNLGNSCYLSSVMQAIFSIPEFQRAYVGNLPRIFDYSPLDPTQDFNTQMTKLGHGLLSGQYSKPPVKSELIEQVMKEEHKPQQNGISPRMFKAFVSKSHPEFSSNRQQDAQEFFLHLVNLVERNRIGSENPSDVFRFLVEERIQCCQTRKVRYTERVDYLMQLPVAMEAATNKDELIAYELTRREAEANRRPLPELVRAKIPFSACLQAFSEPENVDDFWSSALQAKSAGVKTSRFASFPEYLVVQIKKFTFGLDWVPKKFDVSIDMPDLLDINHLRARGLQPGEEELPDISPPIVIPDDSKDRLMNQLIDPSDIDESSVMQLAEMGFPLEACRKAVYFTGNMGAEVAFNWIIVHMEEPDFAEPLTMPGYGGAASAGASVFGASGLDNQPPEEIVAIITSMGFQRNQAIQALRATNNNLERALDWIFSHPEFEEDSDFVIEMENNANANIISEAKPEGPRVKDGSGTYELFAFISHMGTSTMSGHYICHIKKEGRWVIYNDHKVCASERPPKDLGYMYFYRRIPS

C[C@H](Oc1ccc(Br)cc1-c1ccon1)C(=O)O
effect difference vs placebo (measured: CMAP amplitude; human, tibialis anterior muscle; 1200 mg single dose, 3.5 h post-dose; reference: placebo): 0.043 mV

OC(CCN1CCCCC1)(c1ccccc1)C1CC2C=CC1C2 (centres unmarked)
EEG Beta3-power Pz-O2 (resting-state EEG; healthy elderly humans; oral, 4 mg, eyes closed, LS mean): 2.1 µV²

COc1cc2cc(-c3ccc(CC(=O)Nc4cc(C(C)(C)C(F)(F)F)no4)cn3)cnc2cc1OC
best overall response PR (RECIST v1.1; human RET-mutant medullary thyroid cancer; 75 mg, phase I): 29%

O=C(O)CCc1cn2cccnc2n1
Kd (USP13 ZnF-UBD domain): 833 µM

NC(=O)c1cnc2[nH]ccc2c1N[C@@H]1[C@@H]2CC3C[C@H]1C[C@@](O)(C3)C2
total memory T-cell change (flow cytometry; Japanese healthy men, blood; oral, 200 mg single dose, 24 h; reference: baseline): 0.53%

C[C@H]1C[C@H]2CSC(N)=N[C@@]2(c2nc(NC(=O)c3ccc(OC(F)F)cn3)cs2)CO1
total plasma Aβ change (healthy adults, fed, plasma; oral, 200 mg single dose, 6 h; reference: baseline, placebo-adjusted): -49.1%

O=C(O)CNC(=O)Cc1ccccc1
sarcomere length (ventricular cardiomyocytes, C57BL/6 mouse; dose not given, 0.724 s): 1.72 µm

c1ccc(-c2n[nH]cc2-c2ccnc3ccccc23)nc1
log2 fold change (kinase binding, competitor, MIB/MS competition, measured: IRE1; Candida albicans cell lysate; 100 nM; reference: DMSO): 1.08

Cc1nn(-c2nc3c(F)cc(F)cc3s2)c(O)c1C(c1ccc(C(F)(F)F)cc1)c1c(C)nn(-c2nc3c(F)cc(F)cc3s2)c1O
histology score (measured: fat necrosis; mouse, cerulein-induced acute pancreatitis; 25 mg/kg; direction not given): 0

O=C(O)CCn1sc2ccccc2c1=O
Kd (USP13 ZnF-UBD domain): > 1000 µM

CN[C@@H]1COc2c(S(=O)(=O)NC(=O)Nc3c4c(cc5c3CCC5)CCC4)cnn2C1
inhibition (measured: IL-18; human participants, whole blood ex vivo; 1800 mg single dose, 72 h, IL-18, circulating, adjusted for, together with: LPS/ATP; reference: baseline): 48%

c1coc(-c2n[nH]cc2-c2ccnc3ccccc23)c1
log2 fold change (CDC15 (Candida albicans); kinase binding, MIB/MS competition; Candida albicans lysate; 1 µM; reference: DMSO): -0.18

CC(C)NCC(O)c1ccc(O)c(O)c1 (centres unmarked)
sarcomere length (ventricular cardiomyocytes, C57BL/6 mouse; dose not given, 0.396 s): 1.72 µm

Cn1cc(-c2ccc(-c3cncc(Cl)c3N3CCC4(CCNC4=O)CC3)cc2)cn1
log2 fold change (COLO 205; gene expression, microarray, measured: HIST1H4L mRNA; concentration not given, 6 h; reference: untreated cells): -2.05
